Measurements collected from several papers.
Protocols differ between the studies behind these lines. Values joined by “and” are separate records of one study, mostly repeats; a detail may differ. ± gives the spread as reported.
B1: Pigr 19-135 (Mus musculus, UniProt O70570); chain KSPIFGPQEVSSIEGDSVSITCYYPDTSVNRHTRKYWCRQGASGMCTTLISSNGYLSKEYSGRANLINFPENNTFVINIEQLTQDDTGSYKCGLGTSNRGLSFDVSLEVSQVPELPS
B2: P4HB ab fragment (Homo sapiens); chain DAPEEEDHVLVLRKSNFAEALAAHKYLLVEFYAPWCGHCKALAPEYAKAAGKLKAEGSEIRLAKVDATEESDLAQQYGVRGYPTIKFFRNGDTASPKEYTAGREADDIVNWLKKRTGPAATTLPDGAAAESLVESSEVAVIGFFKDVESDSAKQFLQAAEAIDDIPFGITSNSDVFSKYQLDKDGVVLFKKFDEGRNNFEGEVTKENLLDFIKHN
B3: NOTCH2 221-530 (Homo sapiens, UniProt Q04721); sequence looked up; chain LYVPCAPSPCVNGGTCRQTGDFTFECNCLPGFEGSTCERNIDDCPNHRCQNGGVCVDGVNTYNCRCPPQWTGQFCTEDVDECLLQPNACQNGGTCANRNGGYGCVCVNGWSGDDCSENIDDCAFASCTPGSTCIDRVASFSCMCPEGKAGLLCHLDDACISNPCHKGALCDTNPLNGQYICTCPQGYKGADCTEDVDECAMANSNPCEHAGKCVNTDGAFHCECLKGYAGPRCEMDINECHSDPCQNDATCLDKIGGFTCLCMPGFKGVHCELEINECQSNPCVNNGQCVDKVNRFQCLCPPGFTGPVCQ
B4: CDC48A 1-463 (Arabidopsis thaliana, UniProt P54609); chain MSTPAESSDSKSKKDFSTAILERKKSPNRLVVDEAINDDNSVVSLHPATMEKLQLFRGDTILIKGKKRKDTVCIALADETCEEPKIRMNKVVRSNLRVRLGDVISVHQCPDVKYGKRVHILPVDDTVEGVTGNLFDAYLKPYFLEAYRPVRKGDLFLVRGGMRSVEFKVIETDPAEYCVVAPDTEIFCEGEPVKREDEERLDDVGYDDVGGVRKQMAQIRELVELPLRHPQLFKSIGVKPPKGILLYGPPGSGKTLIARAVANETGAFFFCINGPEIMSKLAGESESNLRKAFEEAEKNAPSIIFIDEIDSIAPKREKTNGEVERRIVSQLLTLMDGLKSRAHVIVMGATNRPNSIDPALRRFGRFDREIDIGVPDEIGRLEVLRIHTKNMKLAEDVDLERISKDTHGYVGADLAALCTEAALQCIREKMDVIDLEDDSIDAEILNSMAVTNEHFHTALGNSN
B5: MMACHC 1-243 (Homo sapiens, UniProt Q9Y4U1); chain MEPKVAELKQKIEDTLCPFGFEVYPFQVAWYNELLPPAFHLPLPGPTLAFLVLSTPAMFDRALKPFLQSCHLRMLTDPVDQCVAYHLGRVRESLPELQIEIIADYEVHPNRRPKILAQTAAHVAGAAYYYQRQDVEADPWGNQRISGVCIHPRFGGWFAIRGVVLLPGIEVPDLPPRKPHDCVPTRADRIALLEGFNFHWRDWTYRDAVTPQERYSEEQKAYFSTPPAQRLALLGLAQPSEKP
B6: Cacna1c 1647-1777 (Mus musculus, UniProt Q01815); sequence looked up; chain NALSLQAGLRTLHDIGPEIRRAISGDLTAEEELDKAMKEAVSAASEDDIFRRAGGLFGNHVTYYQSDSRGNFPQTFATQRPLHINKTGNNQADTESPSHEKLVDSTFTPSSYSSTGSNANINNANNTALGR
B7: IL33 112-270 (UniProt O95760); sequence looked up; chain SITGISPITEYLASLSTYNDQSITFALEDESYEIYVEDLKKDEKKDKVLLSYYESQHPSNESGDGVDGKMLMVTLSPTKDFWLHANNKEHSVELHKCEKPLPDQAFFVLHNMHSNCVSFECKTDPGVFIGVKDNHLALIKVDSSENLCTENILFKLSET
B8: Doc2b 13-80 (Mus musculus); chain SIQEHMAIDVCPGPIRPIKQISDYFPRFPRGLPPTAAPRAPAPPDAPARSPAASASPRSPSDGARDDD
B9: PVRIG/Fc Fc fusion (Homo sapiens); chain TPEVWVQVRMEATELSSFTIRCGFLGSGSISLVTVSWGGPNGAGGTTLAVLHPERGIRQWAPARQARWETQSSISLILEGSGASSPCANTTFCCKFASFPEGSWEACGSLPPSSDPGLSAPPTPAPILRADL
B10: AKAP7 (Homo sapiens, UniProt O43687-2); sequence looked up; chain MGQLCCFPFSRDEGKISEKNGGEPDDAELVRLSKRLVENAVLKAVQQYLEETQNKNKPGEGSSVKTEAADQNGNDNENNRK
B11: IL18 37-193 S46C/C74S/C104S/C112S/C163S/V189C (Homo sapiens, UniProt Q14116); chain YFGKLESKLCVIRNLNDQVLFIDQGNRPLFEDMTDSDSRDNAPRTIFIISMYKDSQPRGMAVTISVKSEKISTLSSENKIISFKEMNPPDNIKDTKSDIIFFQRSVPGHDNKMQFESSSYEGYFLASEKERDLFKLILKKEDELGDRSIMFTCQNED
Sequence of UniProt P45481 (whole entry, looked up): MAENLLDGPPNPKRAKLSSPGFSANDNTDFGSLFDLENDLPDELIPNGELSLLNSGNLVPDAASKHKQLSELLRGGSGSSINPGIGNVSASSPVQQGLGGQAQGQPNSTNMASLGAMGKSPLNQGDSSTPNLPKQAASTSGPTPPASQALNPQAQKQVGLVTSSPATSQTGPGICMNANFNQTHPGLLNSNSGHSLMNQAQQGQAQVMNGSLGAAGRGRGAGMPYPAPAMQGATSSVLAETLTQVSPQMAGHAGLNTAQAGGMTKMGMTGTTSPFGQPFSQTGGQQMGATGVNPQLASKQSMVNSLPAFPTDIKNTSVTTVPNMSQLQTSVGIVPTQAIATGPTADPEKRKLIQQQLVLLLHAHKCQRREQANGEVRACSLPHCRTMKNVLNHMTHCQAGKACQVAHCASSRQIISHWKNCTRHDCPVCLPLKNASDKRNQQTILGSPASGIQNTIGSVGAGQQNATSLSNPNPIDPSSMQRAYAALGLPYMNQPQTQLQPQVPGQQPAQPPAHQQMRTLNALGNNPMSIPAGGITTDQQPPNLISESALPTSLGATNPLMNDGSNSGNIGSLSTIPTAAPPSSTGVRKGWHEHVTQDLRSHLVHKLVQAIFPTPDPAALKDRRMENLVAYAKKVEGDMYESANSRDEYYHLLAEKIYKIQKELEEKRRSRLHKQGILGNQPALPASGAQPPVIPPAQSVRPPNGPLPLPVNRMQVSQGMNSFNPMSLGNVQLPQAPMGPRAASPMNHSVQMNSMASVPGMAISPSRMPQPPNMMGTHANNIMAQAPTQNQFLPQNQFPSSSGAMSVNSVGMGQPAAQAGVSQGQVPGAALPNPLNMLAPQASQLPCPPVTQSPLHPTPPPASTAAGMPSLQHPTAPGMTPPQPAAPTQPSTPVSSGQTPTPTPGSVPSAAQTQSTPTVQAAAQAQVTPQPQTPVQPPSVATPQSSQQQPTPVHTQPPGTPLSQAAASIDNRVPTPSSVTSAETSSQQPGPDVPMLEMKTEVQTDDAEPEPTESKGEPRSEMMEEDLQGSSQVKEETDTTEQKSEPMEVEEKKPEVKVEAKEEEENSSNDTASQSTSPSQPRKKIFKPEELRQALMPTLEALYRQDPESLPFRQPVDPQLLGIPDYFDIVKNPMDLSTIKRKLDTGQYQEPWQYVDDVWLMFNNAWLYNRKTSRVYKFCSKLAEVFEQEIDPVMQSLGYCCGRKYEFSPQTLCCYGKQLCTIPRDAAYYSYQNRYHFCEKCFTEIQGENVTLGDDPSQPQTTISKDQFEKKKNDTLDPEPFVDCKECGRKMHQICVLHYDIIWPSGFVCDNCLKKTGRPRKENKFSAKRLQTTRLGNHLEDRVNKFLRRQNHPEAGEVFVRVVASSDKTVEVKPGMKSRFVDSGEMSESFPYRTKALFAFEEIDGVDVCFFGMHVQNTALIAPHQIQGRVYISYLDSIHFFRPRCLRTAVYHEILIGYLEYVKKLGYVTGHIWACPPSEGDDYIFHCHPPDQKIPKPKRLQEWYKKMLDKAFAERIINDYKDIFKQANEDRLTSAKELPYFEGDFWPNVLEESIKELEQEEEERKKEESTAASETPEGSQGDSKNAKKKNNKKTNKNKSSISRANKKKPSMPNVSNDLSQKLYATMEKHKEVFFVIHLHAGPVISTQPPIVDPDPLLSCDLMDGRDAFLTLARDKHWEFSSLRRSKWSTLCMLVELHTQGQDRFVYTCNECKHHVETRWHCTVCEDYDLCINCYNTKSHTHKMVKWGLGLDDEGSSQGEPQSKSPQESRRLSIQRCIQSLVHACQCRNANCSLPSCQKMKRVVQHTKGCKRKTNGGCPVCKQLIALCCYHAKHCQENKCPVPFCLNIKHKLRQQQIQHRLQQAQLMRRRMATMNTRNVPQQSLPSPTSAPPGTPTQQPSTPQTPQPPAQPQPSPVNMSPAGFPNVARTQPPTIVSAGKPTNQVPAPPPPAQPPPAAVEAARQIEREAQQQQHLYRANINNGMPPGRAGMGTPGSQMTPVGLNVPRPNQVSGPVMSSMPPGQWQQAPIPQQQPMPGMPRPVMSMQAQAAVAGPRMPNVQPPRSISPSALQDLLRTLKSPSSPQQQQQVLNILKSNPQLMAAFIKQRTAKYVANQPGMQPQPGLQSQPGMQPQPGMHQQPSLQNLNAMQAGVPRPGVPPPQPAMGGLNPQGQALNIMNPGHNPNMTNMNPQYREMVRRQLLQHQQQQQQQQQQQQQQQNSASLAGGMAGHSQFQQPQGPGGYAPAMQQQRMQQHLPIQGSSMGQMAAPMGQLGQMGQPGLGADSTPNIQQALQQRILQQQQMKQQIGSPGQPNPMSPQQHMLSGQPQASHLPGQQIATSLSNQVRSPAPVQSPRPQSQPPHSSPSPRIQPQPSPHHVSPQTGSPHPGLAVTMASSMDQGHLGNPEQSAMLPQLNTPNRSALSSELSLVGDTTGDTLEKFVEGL
Sequence of UniProt Q06671 (whole entry, looked up): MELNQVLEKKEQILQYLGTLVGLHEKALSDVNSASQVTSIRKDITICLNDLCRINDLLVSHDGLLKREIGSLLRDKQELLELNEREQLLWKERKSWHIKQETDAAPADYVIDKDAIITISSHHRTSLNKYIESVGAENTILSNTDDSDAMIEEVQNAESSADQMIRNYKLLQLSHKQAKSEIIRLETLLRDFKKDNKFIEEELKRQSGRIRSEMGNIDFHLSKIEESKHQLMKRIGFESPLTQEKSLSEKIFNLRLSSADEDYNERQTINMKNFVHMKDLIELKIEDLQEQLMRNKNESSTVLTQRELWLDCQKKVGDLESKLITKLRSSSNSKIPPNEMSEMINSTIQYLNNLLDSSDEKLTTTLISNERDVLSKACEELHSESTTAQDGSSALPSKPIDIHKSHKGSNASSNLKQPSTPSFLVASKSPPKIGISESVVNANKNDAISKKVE
Sequence of UniProt Q9NWS0 (whole entry, looked up): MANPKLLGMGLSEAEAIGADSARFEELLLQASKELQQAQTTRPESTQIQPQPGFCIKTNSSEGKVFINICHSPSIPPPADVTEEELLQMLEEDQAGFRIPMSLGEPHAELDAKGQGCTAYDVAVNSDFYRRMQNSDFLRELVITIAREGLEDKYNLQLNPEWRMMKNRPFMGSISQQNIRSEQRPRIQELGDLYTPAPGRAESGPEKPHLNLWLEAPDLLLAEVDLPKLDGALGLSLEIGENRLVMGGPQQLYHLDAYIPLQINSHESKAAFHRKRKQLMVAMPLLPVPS
Sequence of UniProt Q92692 (whole entry, looked up): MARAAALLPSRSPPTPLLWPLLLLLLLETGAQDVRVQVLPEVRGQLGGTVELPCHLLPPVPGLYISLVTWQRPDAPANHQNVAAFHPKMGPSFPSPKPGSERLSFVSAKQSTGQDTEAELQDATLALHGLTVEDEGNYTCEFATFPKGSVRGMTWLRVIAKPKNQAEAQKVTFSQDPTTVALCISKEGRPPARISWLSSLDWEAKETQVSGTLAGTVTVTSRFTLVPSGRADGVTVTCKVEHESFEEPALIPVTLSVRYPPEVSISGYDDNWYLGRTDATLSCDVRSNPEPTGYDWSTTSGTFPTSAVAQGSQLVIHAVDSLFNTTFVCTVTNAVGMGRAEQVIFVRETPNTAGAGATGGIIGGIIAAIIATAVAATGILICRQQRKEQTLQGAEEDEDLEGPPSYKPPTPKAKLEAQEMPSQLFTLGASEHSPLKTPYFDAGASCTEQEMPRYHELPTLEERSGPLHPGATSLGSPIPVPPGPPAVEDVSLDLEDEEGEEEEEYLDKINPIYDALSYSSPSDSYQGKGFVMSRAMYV
Sequence of UniProt Q8NBP7 (whole entry, looked up): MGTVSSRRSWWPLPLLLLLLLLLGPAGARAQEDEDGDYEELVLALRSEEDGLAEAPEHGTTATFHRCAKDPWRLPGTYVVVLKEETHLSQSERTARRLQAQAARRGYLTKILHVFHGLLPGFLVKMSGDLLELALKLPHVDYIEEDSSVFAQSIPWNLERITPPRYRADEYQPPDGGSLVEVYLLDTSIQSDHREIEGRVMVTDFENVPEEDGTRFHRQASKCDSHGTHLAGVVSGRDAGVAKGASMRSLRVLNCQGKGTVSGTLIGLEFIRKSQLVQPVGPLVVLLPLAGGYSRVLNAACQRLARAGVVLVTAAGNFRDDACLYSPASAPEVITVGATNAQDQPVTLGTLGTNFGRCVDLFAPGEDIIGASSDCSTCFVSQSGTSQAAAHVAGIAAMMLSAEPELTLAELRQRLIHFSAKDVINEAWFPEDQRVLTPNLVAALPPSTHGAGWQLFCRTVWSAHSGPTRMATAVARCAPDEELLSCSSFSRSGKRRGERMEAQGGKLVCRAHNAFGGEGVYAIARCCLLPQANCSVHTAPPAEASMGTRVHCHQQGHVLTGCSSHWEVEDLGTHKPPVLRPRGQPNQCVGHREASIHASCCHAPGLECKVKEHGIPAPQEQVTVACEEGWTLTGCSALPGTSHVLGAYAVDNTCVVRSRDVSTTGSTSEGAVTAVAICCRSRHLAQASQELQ

For `MBL-A mature, hydroxylysine, hydroxyproline in collagen (Rattus norvegicus, UniProt P19999)`, the Kd was 0.0629 µM (C1S (Homo sapiens, UniProt P09871); SPR; added: CaCl2 140 mM).
The Kd of `STIP1 fragment (Homo sapiens) (sequence not shown)` is reported as 169 ± 67 µM (SNCA (Homo sapiens, UniProt P37840); NMR titration).
`B1 (Pigr 19-135)` has a Kd of 1.43 µM (Igha/Jchain CH2-CH3 with J chain del136-137 (Mus musculus); SPR).
`Cacna1c fragment I1691E (Rattus norvegicus)` has a Kd of 21 ± 5 µM (CACNA1C IQ motif 1644-1668, fluorescein label (UniProt P15381); fluorescence polarisation).
`DHEYVLTESFLDSGAFPNHDVIDHNKMLNSNYNGNGILNKGGVLGLVKEYYKKSDVGR (ATG9 940-997 (Saccharomyces cerevisiae, UniProt Q12142); sequence looked up)` has a Kd of 0.37 µM (Atg23 full-length, dimer (yeast, UniProt Q06671); BLI).
The Kd of `YAGSDSDLDSDDEFVPY (TELO2 483-497 (Homo sapiens); pS487)` is reported as 15 ± 1.5 µM (PIH1D1 1-180 (Homo sapiens, UniProt Q9NWS0); ITC; peptide).
For `SDLACRLLGQSMDESGLPQLTSYDCEVNAPIQGSGSRNLLQGEELLRALDQVN (HIF-1α CTAD 776-826 GS insertion (Homo sapiens, UniProt Q16665); sequence looked up)`, the Kd was 0.07 µM (Crebbp 340-439 (Mus musculus, UniProt P45481); fluorescence polarisation).
With `B2 (P4HB ab fragment)` the Kd was 8.2 µM and 6.7 µM (ITGA2B/ITGB3 complex (Homo sapiens); SPR).
`B3 (NOTCH2 221-530)` gave a Kd of 0.054 µM (DLL4 27-400 G28S/F107L/I143F/H194Y/L206P/N257P/T271L/F280Y/S301R/Q305P (Homo sapiens, UniProt Q9NR61); SPR).
The Kd of `B4 (CDC48A 1-463)` is reported as 5.1 ± 0.3 µM (PUX7 (Arabidopsis thaliana, UniProt Q94JZ8); ITC; 10 °C).
`ARTKQTARKSTGGKAPRKQ (H3C1 residues 1-19)` has a Kd of 70.1 µM (SUZ12/RBBP4 SUZ12 76-545 (Homo sapiens); ITC; peptide).
With `evolocumab, partial Asn deamidation` the Kd was 0.00068 µM (PCSK9 (Homo sapiens, UniProt Q8NBP7); SPR).
With `ENAH EVH1 domain (Homo sapiens)` the Kd was 57.3 µM (DBN1 peptide (Homo sapiens); BLI).
The Kd of `B5 (MMACHC 1-243)` is reported as under 0.2 µM (MMADHC 116-296 (Homo sapiens, UniProt Q9H3L0); UV-visible absorption titration).
The Kd of `B6 (Cacna1c 1647-1777)` is reported as 6.63 µM (jph2 1-455 (Danio rerio, UniProt A0ACM8QCS2); ITC).
For `Notch ankyrin domain K152A/R107A (Drosophila)`, the Kd was 9.91 µM (dx (Drosophila melanogaster, UniProt Q23985); AUC).
For `B7 (IL33 112-270)`, the Kd was 0.000104 µM (IL1RL1 19-328 (Homo sapiens, UniProt Q01638-2); SPR).
With `B8 (Doc2b 13-80)` the Kd was 0.16 ± 0.02 µM (Unc13a MUN domain del1453-1531 (Rattus norvegicus); ITC).
`KLLMIIHDRREFAKFEKEKMNAKWDTQENPIYKSPINNFKNPNYGRKAGL (ITGB1 752-801 (Homo sapiens, UniProt P05556-5); sequence looked up)` gave a Kd of 36 µM (Tln2 312-408 (Mus musculus, UniProt Q71LX4); NMR titration).
The Kd of `B9 (PVRIG/Fc Fc fusion)` is reported as 0.216 µM (PVRL2 ECD 32-350 (Homo sapiens, UniProt Q92692); BLI; Fc fusion).
`B10 (AKAP7)` has a Kd of 0.023 µM (PRKCA (Homo sapiens, UniProt P17252); SPR).
For `B11`, the Kd was 1.8e-05 µM (IL18BP (Homo sapiens, UniProt O95998); SPR).

A few entries again:
The Kd of `STIP1 fragment (Homo sapiens) (sequence not shown)` is reported as 169 ± 67 µM (SNCA (Homo sapiens, UniProt P37840); NMR titration).
`DHEYVLTESFLDSGAFPNHDVIDHNKMLNSNYNGNGILNKGGVLGLVKEYYKKSDVGR (ATG9 940-997 (Saccharomyces cerevisiae, UniProt Q12142); sequence looked up)` has a Kd of 0.37 µM (Atg23 full-length, dimer (yeast, UniProt Q06671); BLI).
